Experimental data pooled from the literature.
Every numbered part comes from another study and shows a few of its results, in no order.

Study 1
Target: Fragile X messenger ribonucleoprotein 1, C-terminal low-complexity region (Fmr1, Mus musculus, UniProt P35922)
Technique: RNA Bind-n-Seq
Molecule type: RNA
Medium: in vitro
Concentration: 200 nM
Setting: whole 134-nt RNA, ends assumed
Together with: 150 mM LiCl
Baseline: input library
Direction: higher = stronger binding
Each molecule: 7-deaza-guanosine replaces G
Constant ends, left off below: GGGAGUUCUACAGUCCGACGAUC … UGGAAUUCUCGGGUGUCAAGG
With `GCAGGAAGUAAAAACAAAUGGAAAUGCUUCGGAUAGUGGCAGGGGUGGGGGUUGCUAAGGAAAGGGUGGGCUGGGAGUGGGUAAAGAGUU` the log2 enrichment was 1.18.
With `CCUGUGCUACACAUCGUAUGUACCGAAUCAAACCCCCAAAUUUUUUUAAACCCCCCCAAAAAAGUAUUAUGUUACGCCGUUCGGAUCUGC` the log2 enrichment was 2.09.
For `CCUCAAGUCCUGUGCUACACAUCGUAUGUACCGAAUCGGGAAGGAAGGAAGGAAAGUAUUAUGUUACGCCGUUCGGAUCUGCACUUCCAG`, the log2 enrichment was -0.852.
The log2 enrichment of `UGGGCUGGAUGGCUCAGUUCCCCCAGACCUGGACUGGAAGGGCCAGCCACCUGCACCUCCUAAAAAGGGACUGCUGCAGAGACUCUUCAG` is reported as -0.468.
With `AAGUCCUGUGCUACACAUCGUAUGUACCGAAUCGGUUUUUUUGGUGGUUUUUUUGGAAAGUAUUAUGUUACGCCGUUCGGAUCUGCACUU` the log2 enrichment was -1.65.
For `UUCUGGUCUGCUCACCAGAGGUUCUUCAAAUACUUAUGCAUAGCAUCCAAAGUUAAAAGGGUUGUGCAACUAGCUCGAGAGGAAAUCAAG`, the log2 enrichment was -1.08.

Study 2
Target: Sal-like protein 4, full length isoform A (SALL4, Homo sapiens, UniProt Q9UJQ4, residues 1-1053)
Sequence of UniProt Q9UJQ4 (whole entry, looked up): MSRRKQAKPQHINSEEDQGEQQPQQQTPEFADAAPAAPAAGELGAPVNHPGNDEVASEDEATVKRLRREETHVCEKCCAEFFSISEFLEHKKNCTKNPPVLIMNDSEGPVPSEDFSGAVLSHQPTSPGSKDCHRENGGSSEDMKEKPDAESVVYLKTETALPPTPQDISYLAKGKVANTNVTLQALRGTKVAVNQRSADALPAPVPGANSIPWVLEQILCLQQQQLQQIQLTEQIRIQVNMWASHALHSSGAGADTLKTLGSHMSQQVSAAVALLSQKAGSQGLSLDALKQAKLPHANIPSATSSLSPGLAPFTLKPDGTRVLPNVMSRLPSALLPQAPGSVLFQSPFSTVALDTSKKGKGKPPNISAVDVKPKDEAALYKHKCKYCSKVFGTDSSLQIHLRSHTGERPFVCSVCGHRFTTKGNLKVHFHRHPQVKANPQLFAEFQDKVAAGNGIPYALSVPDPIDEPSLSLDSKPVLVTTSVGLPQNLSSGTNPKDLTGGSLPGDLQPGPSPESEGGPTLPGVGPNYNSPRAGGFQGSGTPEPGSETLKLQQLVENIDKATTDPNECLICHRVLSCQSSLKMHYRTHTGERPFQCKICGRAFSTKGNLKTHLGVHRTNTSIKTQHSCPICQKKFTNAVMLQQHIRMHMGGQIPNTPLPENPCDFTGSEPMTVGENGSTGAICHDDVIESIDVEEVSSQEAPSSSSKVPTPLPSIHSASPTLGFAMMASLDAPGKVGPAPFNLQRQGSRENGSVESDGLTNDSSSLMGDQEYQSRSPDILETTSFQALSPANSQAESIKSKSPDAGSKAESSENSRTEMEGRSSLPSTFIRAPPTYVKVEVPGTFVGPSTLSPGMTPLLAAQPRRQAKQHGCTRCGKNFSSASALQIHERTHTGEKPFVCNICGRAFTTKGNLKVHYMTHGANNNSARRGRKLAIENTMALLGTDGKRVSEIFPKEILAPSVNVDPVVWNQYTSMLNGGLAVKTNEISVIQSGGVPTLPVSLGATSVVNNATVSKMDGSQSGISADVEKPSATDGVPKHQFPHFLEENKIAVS
Technique: universal PBM
Molecule type: double-stranded DNA, one strand shown
Medium: in vitro
Concentration: 600 nM
Setting: 8-mer, flanks averaged, mean of replicates
Direction: higher = stronger binding
`TGCAATAA` has an E-score of 0.324.
`TCAAACCA` has an E-score of 0.111.
The E-score of `GCTATTGA` is reported as 0.0778.
`CGCATTCA` gave an E-score of 0.149.
The E-score of `CTACATTA` is reported as 0.159.
For `TACCTCTA`, the E-score was 0.195.

Study 3
Target: RNA binding protein fox-1 homolog 2, RRM domain, GST-SBP tag (RBFOX2, Homo sapiens, UniProt O43251-10, residues 100-194)
Technique: RNA Bind-n-Seq
Molecule type: RNA
Medium: in vitro
Concentration: 365 nM
Setting: natural RNA segment, single round, ends assumed
Baseline: no-protein control
Direction: higher = stronger binding
Constant ends, left off below: GGGAGUUCUACAGUCCGACGAUC … UGGAAUUCUCGGGUGCCAA
Target sequence (chain): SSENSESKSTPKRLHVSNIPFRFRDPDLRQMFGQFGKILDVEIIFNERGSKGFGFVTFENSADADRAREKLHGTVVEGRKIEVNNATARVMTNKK
Under “RBNS enrichment (R)”, `GGACGAGUUCAGGUUUGUUUUUGCAGCAGAUUCCGUCGUUCUUACUGAGUCUGCAGCGGGGGAGUGAACAAGUGUGCAGAUGUAAGUUCUUACAUGAUAAGCAGAUUGAA` is recorded as 0.283.
`AUGUGGAUGACUUACAAGAAACACAAAAGAAAGGUACUUAUAGAGUCUGGUUCUAAUAAUUGGUACCCUCUUUCUCGGUUCCAUAUUUUUAACAACCCUUUAACAAACUA` — result for “RBNS enrichment (R)”: 0.465.
`AAAAUAAGAAAGCUAUGAAGUAAAUGUUAACUUCUCUGUAGCAGCUAAUGCAUAGAGACACUAAAACCCACACCACAUUUUGUGGGAAAUGAGGAUCCUGAUCCUCUUUU` — result for “RBNS enrichment (R)”: 0.445.
`UUCCCUCCAACAGGAACUCUCUGACCUGUUUAUUCAGGUGUAUUUCUGGUUUGGAUUUUUUUUUCCUUCUUUGUUUUAACAAAUGGAUCCAGGAUGGAUAAAUCCACCGA`: “RBNS enrichment (R)” 0.316.
`UGCUCAGACUCCAGCGCUCCGUUCUUCAAGGAGGUUGACUUGCCUCUCGGGCCCCGUAGGUACCAAGAGACUGUUUACCUCCCAGAAUGUUUGGGCUUGAAGUUACAUUA` — result for “RBNS enrichment (R)”: 0.167.
`UAUCUAUUAAUAUUUAAGACCAGGAAAAAAAAAAAAGAGGCUUAAGAGUAAGCCUGGAAAAUCUCACUUGUUUUCGUAGUAUUGGCUGUAUUUCAGUGCCUCCAGCUUUG`: “RBNS enrichment (R)” 0.49.

Further values, each from its own experiment
For `PhoQ, residues 284 288 289 292 302 303 NLMGRA`, the fold induction was 6.27 (PhoP, residues 12 14 15 18 19 LHSVW (Escherichia coli, UniProt P23836); Sort-seq, item: YFP reporter; E. coli; PhoQ-PhoP variant library, together with: 10 µM Mg2+; baseline: high Mg2+ state, higher = stronger signaling).

Excerpt of the above (study 1):
With `AAGUCCUGUGCUACACAUCGUAUGUACCGAAUCGGUUUUUUUGGUGGUUUUUUUGGAAAGUAUUAUGUUACGCCGUUCGGAUCUGCACUU` the log2 enrichment was -1.65.
For `UUCUGGUCUGCUCACCAGAGGUUCUUCAAAUACUUAUGCAUAGCAUCCAAAGUUAAAAGGGUUGUGCAACUAGCUCGAGAGGAAAUCAAG`, the log2 enrichment was -1.08.
